Results from different studies.
Numbered parts are unrelated; each lists some results of a single study.

Study 1 — technique: RNAcompete; molecule type: RNA; matrix: in vitro; tested at: 20 nM; setting: 7-mer, probes averaged, single round; relative to: mean of 7-mers; direction: higher = stronger binding; endpoint: 7-mer Z-score
Target: PABPC1L2, full length, GST fusion (mouse, UniProt A0ABA7IW68)
Residues (chain): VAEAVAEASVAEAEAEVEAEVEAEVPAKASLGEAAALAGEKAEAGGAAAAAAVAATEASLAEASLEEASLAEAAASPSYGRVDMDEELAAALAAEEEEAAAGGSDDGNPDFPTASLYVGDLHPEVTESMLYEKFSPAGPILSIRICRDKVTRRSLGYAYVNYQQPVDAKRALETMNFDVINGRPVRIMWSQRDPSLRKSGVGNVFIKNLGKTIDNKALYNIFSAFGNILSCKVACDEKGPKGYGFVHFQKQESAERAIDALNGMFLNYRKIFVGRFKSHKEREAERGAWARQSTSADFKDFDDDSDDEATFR
CACCUAU: -0.242
GGGCCGU: -0.0899
CCGGUAU: -0.195
GCGAAGG: -0.021
GAGCUUG: -0.213
CGCCUUA: -0.222
GGUUGAG: -0.0573
CCAAGUU: -0.28

Study 2 — technique: universal PBM; molecule type: double-stranded DNA, one strand shown; matrix: in vitro; tested at: not given; direction: higher = stronger binding; endpoint: E-score
Target: Sal-like protein 4, full length isoform B (SALL4, Homo sapiens, UniProt Q9UJQ4-2, residues 1-616)
Setting: 8-mer, flanks averaged, mean of replicates
Construct (chain): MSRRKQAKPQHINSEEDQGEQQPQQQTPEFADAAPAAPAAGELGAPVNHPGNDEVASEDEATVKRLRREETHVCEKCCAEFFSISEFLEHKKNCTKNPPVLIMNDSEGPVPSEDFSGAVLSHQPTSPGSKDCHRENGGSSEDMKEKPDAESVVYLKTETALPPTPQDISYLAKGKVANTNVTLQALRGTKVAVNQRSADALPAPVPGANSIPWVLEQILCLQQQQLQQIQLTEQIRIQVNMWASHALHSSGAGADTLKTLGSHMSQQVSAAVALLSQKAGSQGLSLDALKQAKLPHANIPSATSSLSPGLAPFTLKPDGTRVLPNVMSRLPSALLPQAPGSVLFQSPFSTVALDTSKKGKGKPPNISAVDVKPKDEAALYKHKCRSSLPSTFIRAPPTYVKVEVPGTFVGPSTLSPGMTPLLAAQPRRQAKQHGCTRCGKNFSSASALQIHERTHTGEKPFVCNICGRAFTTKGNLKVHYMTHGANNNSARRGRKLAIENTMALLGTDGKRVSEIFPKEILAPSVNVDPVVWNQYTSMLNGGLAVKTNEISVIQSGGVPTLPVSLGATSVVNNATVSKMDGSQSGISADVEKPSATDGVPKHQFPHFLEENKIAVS
ACATTAGT: 0.104
GGAATCAA: -0.0322
CTCGTCAG: -0.14
CGTACAGC: -0.147
CGGGTCCA: -0.313
AACGACCA: -0.0428
AGGGTCCG: -0.331
ACTCTAGA: 0.0753

Study 3 — cell line: HEK-293T/ACE2; tested at: 10 µM; time: 16 h; relative to: vehicle; endpoint: viability
Cc1ccc(Sc2ccccc2N2CCNCC2)c(C)c1: 101%
C[C@H]1COc2c(N3CCN(C)CC3)c(F)cc3c(=O)c(C(=O)O)cn1c23: 100%
Cc1cc(C2CCCCC2)n(O)c(=O)c1: 74.5%

Study 4 — observed: enzyme activity; action: inhibitor; tested at: 20 µM; setting: hit confirmation; endpoint: inhibition
Target: Replicase polyprotein 1ab, main protease (rep, Severe acute respiratory syndrome coronavirus 2, UniProt P0DTD1)
CSc1ccc(C(=O)c2nc(O)[nH]c2C)cc1: 68.4%
C[C@@H]1O[C@@H](Oc2c(-c3cc(O)c(O)c(O)c3)oc3cc(O)cc(O)c3c2=O)[C@@H](O)[C@H](O)[C@H]1O: 77.9%
CCN(CC)S(=O)(=O)c1cccc(-n2sc3ccccc3c2=O)c1: 109%
O=C(Nc1ccc(Cl)c(Cl)c1)Nc1ccc(Cl)c(Cl)c1: 45.1%

Study 5 — observed: enzyme activity; action: inhibitor; tested at: 20 µM; endpoint: inhibition
Target: Replicase polyprotein 1ab, polymerase (rep, Severe acute respiratory syndrome coronavirus 2, UniProt P0DTD1)
COc1cc2c(cc1OC)[C@H]1CC(=O)[C@H](CC(C)C)CN1CC2: -0.78%
Clc1cccc(-c2nnnn2Cc2cccnc2)c1Cl: -23.2%
CC1=C(/C=C/C(C)=C/C=C/C(C)=C/C(=O)Nc2ccc(O)cc2)C(C)(C)CCC1: -5.55%
O=Nc1ccc(O)c2ncccc12: 1.18%
CN1CCN(CCCCN2C(=O)CN(/N=C/c3ccc(-c4ccc(Cl)cc4)o3)C2=O)CC1: 1.07%
COc1ccc(C(C)=O)c(O)c1: -6.35%
Cc1cc(OCCCS(C)(=O)=O)cc(C)c1-c1cccc(COc2ccc3c(c2)OC[C@H]3CC(=O)O)c1: -14.3%
COc1ccccc1N1CCN(CCN(C(=O)C2CCCCC2)c2ccccn2)CC1: -3.89%
CN1CCCC1CCSc1ccc(O)cc1 (centres unmarked): -6.44%
Oc1ccc(/C=C/c2cc(O)cc(O)c2)cc1: -0.05%
COc1cc2c(c(OC)c1OC)-c1c(cc3c(c1OC)OCO3)C[C@H](C)[C@@](C)(O)C2: -1.03%
C[C@@H]1C(=O)O[C@H]2[C@H](O)[C@@]34[C@H]5C[C@@H](C(C)(C)C)[C@]36[C@@H](OC(=O)[C@@H]6O)O[C@@]4(C(=O)O5)[C@@]12O: 4.14%
CCCCCOc1ccc(-c2cc(-c3ccc(C(=O)N[C@H]4C[C@@H](O)[C@@H](O)NC(=O)[C@@H]5[C@@H](O)[C@@H](C)CN5C(=O)[C@H]([C@H](O)CC(N)=O)NC(=O)[C@H]([C@H](O)[C@@H](O)c5ccc(O)c(OS(=O)(=O)O)c5)NC(=O)[C@@H]5C[C@@H](O)CN5C(=O)[C@H]([C@@H](C)O)NC4=O)cc3)no2)cc1: 6.17%
Cc1ccnc(NC(=O)C(C)c2cccc(C(=O)c3ccccc3)c2)c1 (centres unmarked): -3.16%
COCCc1ccc(OCC(O)CNC(C)C)cc1 (centres unmarked): 16%
CCOc1ccc(NC(=S)N2CCC(C(O)(c3ccccc3)c3ccccc3)CC2)cc1: 13.5%
Cn1cc(-c2ccc3c(c2)CCN3C(=O)Cc2cccc(C(F)(F)F)c2)c2c(N)ncnc21: -0.08%
O=C1C[C@@H]2OCC=C3CN4CC[C@]56c7ccccc7N1[C@H]5[C@H]2[C@H]3C[C@H]46: -1.74%
NCCNS(=O)(=O)c1ccc(Cl)c2ccncc12: 1.63%
Nc1cc(C(F)(F)F)c(-c2cc(N3CCOCC3)nc(N3CCOCC3)n2)cn1: -2.53%
[N-]=[N+]=N[C@]1(CO)O[C@@H](n2ccc(N)nc2=O)[C@H](O)[C@@H]1O: -5%
CCc1cncnc1N1CCN(Cc2nc3ccc(C(F)(F)F)cc3[nH]2)CC1: 0.27%
CN1C(=O)c2c(nn(Cc3ccc(-c4cccc(F)n4)cc3)c2Nc2ccccc2)N2C1=N[C@@H]1CCC[C@@H]12: 68.1%
Cc1ccc(Sc2cncc3sc(C(N)=O)cc23)cc1: -0.74%
CC(=O)c1ccc(NS(C)(=O)=O)c(Oc2ccc(F)cc2F)c1: -2.57%

Study 6 — technique: RNA Bind-n-Seq; molecule type: RNA; matrix: in vitro; tested at: not given; relative to: input RNA pool; direction: higher = stronger binding; endpoint: bound/input enrichment
Target: RING finger protein unkempt homolog, zinc fingers 1-6, GST-SBP tag (UNK, Homo sapiens, UniProt Q9C0B0, residues 30-357)
Sequence of UniProt Q9C0B0 (30-357, looked up): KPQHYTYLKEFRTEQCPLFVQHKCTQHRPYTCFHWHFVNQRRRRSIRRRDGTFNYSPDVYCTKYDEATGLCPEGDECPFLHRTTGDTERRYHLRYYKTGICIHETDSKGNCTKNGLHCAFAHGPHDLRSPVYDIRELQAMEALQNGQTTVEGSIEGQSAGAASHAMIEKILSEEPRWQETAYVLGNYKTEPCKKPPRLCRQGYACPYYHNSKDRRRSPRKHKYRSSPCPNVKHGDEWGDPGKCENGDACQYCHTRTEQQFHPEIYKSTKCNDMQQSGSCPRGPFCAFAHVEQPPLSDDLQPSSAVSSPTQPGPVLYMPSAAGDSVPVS
Setting: RNA with constant flanks, human and mouse sites, ends assumed
All sequences stand within: GGGAGUUCUACAGUCCGACGAUC … CAACAGAGGAUUGAGCAUCA
CUGAACCUUCAAGAUACUGAAUAUAGCUUAUCUUCUUUUCCUUUUAUGUUAUUAAACUACACAAGCAUUGAGGAUUUCUAUCGGUCUUGUUACAAGAUUUUGAUCCCACAUUUGGUAAUC: 0.196 ratio
UUAGUUGUAGAUGACACAGAUAAACUUAGAUCAAAAUGAAAGUUGAAGGUCUUUAUUUCUCAAACUCUUUGGUGUUAAUAGAAUCCUAACAAAGUUUCAUUAGUCUAUUGUUUUAGUUAG: 3.77 ratio
CCCUUUCAGUUUAUUUUCCUUCCUUAUUUUGUUAUACAUACCCUUCCCUUUCUCCCCUGCCUUUCGUACAUUCAUUCCUCUUCCUCUACCCUCCAGCACAUCUACUUACUGGUGCUGUGC: 2.13 ratio
AGUUUCAUCAUUUGGGUUCUCACACAGUGGGCUUACCCAGAGUGGAGCACACCUCCGGGGCUUGUGGCUGCUGCUGUGUAGACGCCUGCAUCUGUGCUGCGUGUGUGGUGCGUGUGGCUG: 0.15 ratio
GUUGCUUAUGAACGUGGCCAAUGUGAUCUGGAACUUAUUAAUGUUUGCAAUGAGAAUUCCCUCUUCAAAAGUCUUUCUCGCUACCUGGUACGUCGAAAGGAUCCAGAAUUGUGGGGCAGC: 0.192 ratio
UAUCAAGCAGUCAUUCAAUGACUAUAACCUCUACUCCCUUGGGAUUGUAGAAUUAUAACUUUUAAAAAAAAUGUAUAAAUUAUACCUGGCCUGUACAGCUGUUUCCUACCUACUCUUCUU: 0.772 ratio
UCCAAAAGCUAUGUGAAAUUACGAGACUUUGUGCUUGUGAAGCUUUGUCAAGAUUUGCCCUGUUUUUCCCGGGAAAAAUUAAUGCAAGGAUUCAAUGAAGAUAUGGCGAUAGAGGCACAA: 0.114 ratio
UUUUUAAUAUUAAACUGAAUGAAUAUAAUACUGAGUAACCUAAAAUGAAAGUUUUAAAAAGAUUUAUAUCCACUGAGAACACUGGCCUUAUAUUAAGGAUGAUAUUACAGUUACAGGUUU: 0.549 ratio

Repeated from above (study 1):
CCGGUAU: -0.195
GCGAAGG: -0.021
GAGCUUG: -0.213
CGCCUUA: -0.222
GGUUGAG: -0.0573
CCAAGUU: -0.28
